Measurements gathered from unrelated publications.
Each line is one published result; not all experiments were run side by side.
Mode: inhibitor
SLC2A1: Solute carrier family 2, facilitated glucose transporter member 1 (SLC2A1, Homo sapiens, UniProt P11166)
UniProt P11166, sequence (whole entry, looked up): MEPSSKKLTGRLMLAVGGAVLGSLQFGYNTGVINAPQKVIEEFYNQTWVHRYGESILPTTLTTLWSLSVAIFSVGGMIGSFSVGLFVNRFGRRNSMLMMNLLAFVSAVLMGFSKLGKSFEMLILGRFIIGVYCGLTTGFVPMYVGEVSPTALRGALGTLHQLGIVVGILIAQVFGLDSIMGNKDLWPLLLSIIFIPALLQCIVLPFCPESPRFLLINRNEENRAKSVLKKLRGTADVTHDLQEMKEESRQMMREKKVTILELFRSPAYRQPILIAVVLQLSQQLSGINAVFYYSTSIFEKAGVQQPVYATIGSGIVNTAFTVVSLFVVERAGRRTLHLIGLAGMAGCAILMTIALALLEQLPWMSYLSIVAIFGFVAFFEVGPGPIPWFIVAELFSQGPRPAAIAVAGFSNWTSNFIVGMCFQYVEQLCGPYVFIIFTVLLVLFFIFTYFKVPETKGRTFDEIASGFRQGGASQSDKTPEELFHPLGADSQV
RET: Proto-oncogene tyrosine-protein kinase receptor Ret (RET, Homo sapiens, UniProt P07949)
UniProt P07949, sequence (whole entry, looked up): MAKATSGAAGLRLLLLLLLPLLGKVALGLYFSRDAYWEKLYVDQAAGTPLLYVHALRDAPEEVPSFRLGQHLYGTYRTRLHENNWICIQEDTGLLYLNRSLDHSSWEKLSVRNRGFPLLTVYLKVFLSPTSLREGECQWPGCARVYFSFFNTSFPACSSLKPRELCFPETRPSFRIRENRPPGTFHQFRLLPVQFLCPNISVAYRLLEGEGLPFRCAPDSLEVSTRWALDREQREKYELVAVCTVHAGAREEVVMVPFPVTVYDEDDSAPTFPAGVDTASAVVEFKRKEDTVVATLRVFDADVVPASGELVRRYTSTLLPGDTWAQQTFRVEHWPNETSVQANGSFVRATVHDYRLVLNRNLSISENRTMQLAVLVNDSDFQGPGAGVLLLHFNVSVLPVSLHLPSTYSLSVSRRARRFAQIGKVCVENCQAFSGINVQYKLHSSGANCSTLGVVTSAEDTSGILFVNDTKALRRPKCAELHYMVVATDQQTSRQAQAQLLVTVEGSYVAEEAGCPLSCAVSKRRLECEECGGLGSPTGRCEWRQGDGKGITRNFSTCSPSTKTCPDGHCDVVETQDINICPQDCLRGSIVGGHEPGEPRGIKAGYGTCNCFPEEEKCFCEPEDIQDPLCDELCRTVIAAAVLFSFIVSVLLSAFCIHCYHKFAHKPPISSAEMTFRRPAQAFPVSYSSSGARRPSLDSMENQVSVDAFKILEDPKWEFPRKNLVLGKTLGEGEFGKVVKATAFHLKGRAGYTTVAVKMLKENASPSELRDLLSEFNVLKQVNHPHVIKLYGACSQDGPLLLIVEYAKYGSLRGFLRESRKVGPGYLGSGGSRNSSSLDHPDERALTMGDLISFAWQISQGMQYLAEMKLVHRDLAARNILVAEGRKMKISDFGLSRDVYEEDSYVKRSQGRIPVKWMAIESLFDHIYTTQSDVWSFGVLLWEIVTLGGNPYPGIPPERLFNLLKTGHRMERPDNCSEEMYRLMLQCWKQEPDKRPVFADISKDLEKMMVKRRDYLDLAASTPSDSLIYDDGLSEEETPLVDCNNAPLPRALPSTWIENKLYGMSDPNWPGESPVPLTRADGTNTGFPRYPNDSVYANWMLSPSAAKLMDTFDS
AAK1: AP2-associated protein kinase 1 (AAK1, Homo sapiens, UniProt Q2M2I8)
UniProt Q2M2I8, sequence (whole entry, looked up): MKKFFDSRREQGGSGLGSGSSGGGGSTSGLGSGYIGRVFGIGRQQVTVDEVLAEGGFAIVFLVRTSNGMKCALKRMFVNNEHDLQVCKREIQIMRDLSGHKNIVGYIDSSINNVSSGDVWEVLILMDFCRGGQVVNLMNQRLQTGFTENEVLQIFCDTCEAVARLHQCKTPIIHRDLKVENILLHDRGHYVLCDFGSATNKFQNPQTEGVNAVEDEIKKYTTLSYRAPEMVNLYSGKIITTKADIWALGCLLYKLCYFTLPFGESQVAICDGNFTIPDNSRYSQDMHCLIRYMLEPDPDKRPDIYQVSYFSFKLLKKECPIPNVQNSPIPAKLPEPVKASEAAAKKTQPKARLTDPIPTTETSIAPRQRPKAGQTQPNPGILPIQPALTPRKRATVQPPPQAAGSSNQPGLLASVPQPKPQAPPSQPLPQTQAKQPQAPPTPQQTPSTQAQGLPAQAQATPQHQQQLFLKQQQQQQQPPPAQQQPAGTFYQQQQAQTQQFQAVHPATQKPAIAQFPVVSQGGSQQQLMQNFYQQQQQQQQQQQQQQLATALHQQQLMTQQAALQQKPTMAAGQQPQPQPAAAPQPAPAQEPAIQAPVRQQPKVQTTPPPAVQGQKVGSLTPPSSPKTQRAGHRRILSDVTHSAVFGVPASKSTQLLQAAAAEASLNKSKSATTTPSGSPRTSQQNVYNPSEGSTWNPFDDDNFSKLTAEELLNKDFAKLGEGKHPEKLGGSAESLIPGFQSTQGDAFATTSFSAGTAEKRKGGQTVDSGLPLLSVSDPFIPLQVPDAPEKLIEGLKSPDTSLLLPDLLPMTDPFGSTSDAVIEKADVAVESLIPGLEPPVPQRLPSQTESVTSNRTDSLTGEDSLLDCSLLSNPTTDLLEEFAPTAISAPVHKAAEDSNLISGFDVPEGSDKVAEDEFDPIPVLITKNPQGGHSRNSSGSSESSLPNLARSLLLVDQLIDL
MPO: Myeloperoxidase (MPO, Homo sapiens, UniProt P05164)
UniProt P05164, sequence (whole entry, looked up): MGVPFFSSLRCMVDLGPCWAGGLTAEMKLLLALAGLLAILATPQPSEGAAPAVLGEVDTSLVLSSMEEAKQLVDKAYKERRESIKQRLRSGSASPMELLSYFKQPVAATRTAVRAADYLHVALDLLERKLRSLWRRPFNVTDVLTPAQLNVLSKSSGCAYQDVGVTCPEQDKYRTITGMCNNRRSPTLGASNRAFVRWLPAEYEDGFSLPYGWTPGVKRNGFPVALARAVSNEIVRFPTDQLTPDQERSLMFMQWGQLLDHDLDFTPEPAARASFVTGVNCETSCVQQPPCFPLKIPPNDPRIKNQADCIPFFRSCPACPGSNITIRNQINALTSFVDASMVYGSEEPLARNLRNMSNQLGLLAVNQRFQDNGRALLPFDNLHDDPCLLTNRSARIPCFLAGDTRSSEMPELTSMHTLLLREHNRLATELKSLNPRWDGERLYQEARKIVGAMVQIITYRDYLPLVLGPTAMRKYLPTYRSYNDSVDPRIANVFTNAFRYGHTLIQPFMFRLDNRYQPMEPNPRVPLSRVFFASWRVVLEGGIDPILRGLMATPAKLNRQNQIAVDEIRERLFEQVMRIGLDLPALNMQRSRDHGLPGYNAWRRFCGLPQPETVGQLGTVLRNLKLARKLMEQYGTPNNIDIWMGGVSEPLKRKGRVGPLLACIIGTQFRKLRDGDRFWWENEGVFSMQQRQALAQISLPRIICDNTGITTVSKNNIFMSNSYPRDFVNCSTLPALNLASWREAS
UniProt P51956, sequence (whole entry, looked up): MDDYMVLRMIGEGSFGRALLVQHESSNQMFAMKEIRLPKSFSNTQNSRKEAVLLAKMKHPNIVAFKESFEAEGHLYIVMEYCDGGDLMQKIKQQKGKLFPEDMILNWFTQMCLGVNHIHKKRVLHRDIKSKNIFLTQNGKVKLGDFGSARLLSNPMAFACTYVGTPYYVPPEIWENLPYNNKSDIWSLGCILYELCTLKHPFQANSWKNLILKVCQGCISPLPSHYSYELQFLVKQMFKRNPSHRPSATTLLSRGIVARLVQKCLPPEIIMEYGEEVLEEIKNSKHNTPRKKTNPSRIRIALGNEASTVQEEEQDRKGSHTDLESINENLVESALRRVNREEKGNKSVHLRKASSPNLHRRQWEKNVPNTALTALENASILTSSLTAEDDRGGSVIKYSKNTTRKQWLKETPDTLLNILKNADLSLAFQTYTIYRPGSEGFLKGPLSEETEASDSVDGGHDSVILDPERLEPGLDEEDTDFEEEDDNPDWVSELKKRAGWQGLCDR
UniProt Q99755, sequence (whole entry, looked up): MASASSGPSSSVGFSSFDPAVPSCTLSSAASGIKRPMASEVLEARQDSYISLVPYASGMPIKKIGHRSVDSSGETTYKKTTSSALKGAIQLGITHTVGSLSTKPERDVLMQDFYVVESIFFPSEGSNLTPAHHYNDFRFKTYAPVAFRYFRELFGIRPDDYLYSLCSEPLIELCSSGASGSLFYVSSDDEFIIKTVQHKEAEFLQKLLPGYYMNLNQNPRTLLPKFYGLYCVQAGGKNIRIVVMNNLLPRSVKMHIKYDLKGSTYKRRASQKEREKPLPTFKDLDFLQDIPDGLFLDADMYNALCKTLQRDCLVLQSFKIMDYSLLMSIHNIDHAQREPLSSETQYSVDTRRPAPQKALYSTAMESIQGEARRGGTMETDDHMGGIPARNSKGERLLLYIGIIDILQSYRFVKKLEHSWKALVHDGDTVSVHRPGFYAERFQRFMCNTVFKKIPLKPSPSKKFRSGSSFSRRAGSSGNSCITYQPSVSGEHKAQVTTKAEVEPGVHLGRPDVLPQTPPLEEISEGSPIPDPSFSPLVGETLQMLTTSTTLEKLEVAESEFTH
UniProt Q9BXA7, sequence (whole entry, looked up): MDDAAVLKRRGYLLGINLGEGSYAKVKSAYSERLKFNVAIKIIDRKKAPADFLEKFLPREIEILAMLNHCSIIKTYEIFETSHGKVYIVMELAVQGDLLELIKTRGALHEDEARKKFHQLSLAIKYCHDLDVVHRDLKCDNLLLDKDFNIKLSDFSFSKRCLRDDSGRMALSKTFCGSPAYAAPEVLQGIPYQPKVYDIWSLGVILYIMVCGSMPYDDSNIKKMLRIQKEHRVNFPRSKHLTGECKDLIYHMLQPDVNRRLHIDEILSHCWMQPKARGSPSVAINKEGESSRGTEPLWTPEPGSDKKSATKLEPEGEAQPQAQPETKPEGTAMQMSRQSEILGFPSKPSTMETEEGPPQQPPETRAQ
UniProt Q00535, sequence (whole entry, looked up): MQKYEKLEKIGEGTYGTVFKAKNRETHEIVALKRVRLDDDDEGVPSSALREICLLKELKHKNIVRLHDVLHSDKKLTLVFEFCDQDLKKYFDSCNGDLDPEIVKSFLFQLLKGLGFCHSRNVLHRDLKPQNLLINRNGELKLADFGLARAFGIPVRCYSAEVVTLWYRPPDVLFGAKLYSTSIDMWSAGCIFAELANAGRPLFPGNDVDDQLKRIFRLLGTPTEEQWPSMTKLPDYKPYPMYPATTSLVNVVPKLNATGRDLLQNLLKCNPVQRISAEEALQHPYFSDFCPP

With `COc1ccc(-c2ccc(/C(C)=N/O)c(O)c2Cl)cc1` the remaining activity was 85% (SLC2A1; transporter uptake; NCI-H1299; 30 µM).
`Cc1cc(NC(=O)Nc2c(NC3CCCC3)c3ccccc3oc2=O)ccc1Br` gave a remaining activity of 97.2% (RET; enzyme activity, radiometric; 0.1 µM).
With `CNc1ncc2c(/C=C/C(=O)N3CCC(OC)CC3)nn(Cc3cccc(C(F)(F)F)c3)c2n1` the remaining activity was 104% (NEK3 (Homo sapiens, UniProt P51956); enzyme activity, radiometric; 1 µM).
`CCCOc1ccc(OC)c(F)c1C(=O)c1ccc(C(=O)N[C@@H]2CNC[C@H]2NC(=O)c2ccc3[nH]ncc3c2)cc1` gave a remaining activity of 1% (PRKAA2 (Homo sapiens, UniProt P54646); enzyme activity; 10 µM).
The remaining activity of `COc1ccc(Cl)cc1NC(=O)Nc1ccc2nc(NC(=O)c3ccccc3)sc2c1` is reported as 103% (RET; enzyme activity, radiometric; 10 µM).
The remaining activity of `C/C(=N\O)c1ccc(-c2ccc(OC(F)(F)F)cc2)c(Cl)c1O` is reported as 81% (SLC2A1; transporter uptake, radiometric; NCI-H1299; 30 µM).
The remaining activity of `O=C(Nc1cccc(Nc2ncc(Br)c(NCCc3cnc[nH]3)n2)c1)N1CCCC1` is reported as 5% (AAK1; enzyme activity, radiometric; 1 µM).
`CC[C@H](C)[C@H](NC(=O)[C@H](CCC(N)=O)NC(=O)[C@@H](NC(=O)[C@H](CCSC)NC(=O)[C@H](CCCCN)NC(=O)[C@H](CO)NC(=O)[C@@H](NC(=O)[C@H](CCSC)NC(=O)[C@H](CC(C)C)NC(=O)[C@H](CC(N)=O)NC(=O)[C@@H](NC(=O)[C@@H](NC(=O)[C@H](CO)NC(=O)[C@H](CC(C)C)NC(=O)[C@H](C)NC(=O)[C@H](CCCNC(=N)N)NC(=O)[C@H](CCC(=O)O)NC(=O)[C@H](Cc1ccc(O)cc1)NC(=O)[C@H](Cc1ccccc1)NC(=O)[C@H](C)NC(=O)[C@H](CC(N)=O)NC(=O)[C@@H](N)CCCCN)[C@@H](C)CC)[C@@H](C)CC)[C@@H](C)O)C(C)C)C(=O)N[C@@H](CC(N)=O)C(=O)N[C@H](C(=O)O)C(C)C` gave a remaining activity of 92% (Cyclin-dependent kinase 5, with p25 (CDK5, Homo sapiens, UniProt Q00535); enzyme activity, radiometric; 10 µM, 20 min).
For `NC/C(=C\F)COc1cccc(Cn2c(=S)[nH]c(=O)c3[nH]cnc32)c1`, the remaining activity was 35.6% (MPO; enzyme activity; 0.3125 µM).
With `Cc1cc([C@@H](C)Nc2ccccc2C(=O)O)c2nc(N3CCC(F)(F)CC3)c(C#N)c(=O)n2c1` the remaining activity was 91% (PIP5K1A (Homo sapiens, UniProt Q99755); enzyme activity, ADP detection; 10 µM).
`CC(C)(O)[C@H]1CC[C@H](Nc2ccc3ncc(-c4cccc(C(F)(F)F)c4)n3n2)CC1` gave a remaining activity of 96.8% (TSSK1B (Homo sapiens, UniProt Q9BXA7); enzyme activity; 1 µM).
The remaining activity of `CC(=O)c1cccc(NC(=O)Nc2cc3c(cc2Oc2ccccc2)n(C)c(=O)n3C)c1` is reported as 99.7% (RET; enzyme activity, radiometric; 10 µM).
For `COc1ccc(Cl)cc1-c1cc(=O)[nH]c(=S)n1CC(N)=O`, the remaining activity was 97.1% (MPO; enzyme activity; 0.3125 µM).
`COc1cccc(Nc2nc(C)c(C(=O)Nc3ccc4c(c3)OCO4)s2)c1` has a remaining activity of 55.3% (RET; enzyme activity, radiometric; 10 µM).
For `N=C(N)c1ccc(-c2ccc(-c3ccc(C(=N)N)cc3)o2)cc1`, the remaining activity was 89.3% (PRMT5 (Homo sapiens, UniProt O14744); enzyme activity, radiometric; 20 µM).
`NS(=O)(=O)c1ccc(CNc2ccnc(Nc3cccc(CN4CCOCC4)c3)n2)cc1` has a remaining activity of 61% (AAK1; enzyme activity, radiometric; 1 µM).
The remaining activity of `COc1cc(NC(=O)Nc2cc(C)c3nc(NC(=O)c4ccccc4)sc3c2)cc(OC)c1` is reported as 88.3% (RET; enzyme activity, radiometric; 10 µM).
`C/C(=N\O)c1ccc(-c2ccc(O)c(C)c2)c(Cl)c1O` has a remaining activity of 8% (SLC2A1; transporter uptake, radiometric; NCI-H1299; 30 µM).
`Cc1cccc(-n2ncc3c(O)c(C(=O)Nc4ccc(C)cc4F)c(=O)[nH]c32)c1` has a remaining activity of 134% (RET; enzyme activity, radiometric; 0.1 µM).
With `COc1cc(-c2cncc3c2CN(C)Cc2cc(N4CCNCC4)ccc2-3)cc(OC)c1OC` the remaining activity was 104% (TSSK4 (Homo sapiens, UniProt Q6SA08); enzyme activity; 1 µM).
`CCn1cc(C(=O)Nc2cccc(O)c2)c(=O)c2cc(F)c(N3CCN(C(C)=O)CC3)cc21` has a remaining activity of 25.3% (RET; enzyme activity, radiometric; 10 µM).
For `CC[C@H](C)[C@H](NC(=O)[C@H](CCC(N)=O)NC(=O)[C@H](CC(C)C)NC(=O)[C@H](CCSC)NC(=O)[C@H](CCCCN)NC(=O)[C@H](CO)NC(=O)[C@H](CO)NC(=O)[C@H](CCSC)NC(=O)[C@H](CC(C)C)NC(=O)[C@H](CC(N)=O)NC(=O)[C@@H](NC(=O)[C@@H](NC(=O)[C@H](CO)NC(=O)[C@H](CC(C)C)NC(=O)[C@H](CS)NC(=O)[C@H](CCCNC(=N)N)NC(=O)[C@H](CC(=O)O)NC(=O)[C@H](Cc1c[nH]c2ccccc12)NC(=O)[C@H](Cc1ccccc1)NC(=O)[C@H](C)NC(=O)[C@H](CCC(=O)O)NC(=O)[C@@H](N)CCCCN)C(C)C)[C@@H](C)CC)C(=O)N[C@@H](CC(N)=O)C(=O)N[C@@H](C)C(=O)O`, the remaining activity was 75% (MAPK3 (Homo sapiens, UniProt P27361); enzyme activity, radiometric; 500 µM, 20 min).

Repeated from above:
`Cc1cc(NC(=O)Nc2c(NC3CCCC3)c3ccccc3oc2=O)ccc1Br` gave a remaining activity of 97.2% (RET; enzyme activity, radiometric; 0.1 µM).
For `CC[C@H](C)[C@H](NC(=O)[C@H](CCC(N)=O)NC(=O)[C@H](CC(C)C)NC(=O)[C@H](CCSC)NC(=O)[C@H](CCCCN)NC(=O)[C@H](CO)NC(=O)[C@H](CO)NC(=O)[C@H](CCSC)NC(=O)[C@H](CC(C)C)NC(=O)[C@H](CC(N)=O)NC(=O)[C@@H](NC(=O)[C@@H](NC(=O)[C@H](CO)NC(=O)[C@H](CC(C)C)NC(=O)[C@H](CS)NC(=O)[C@H](CCCNC(=N)N)NC(=O)[C@H](CC(=O)O)NC(=O)[C@H](Cc1c[nH]c2ccccc12)NC(=O)[C@H](Cc1ccccc1)NC(=O)[C@H](C)NC(=O)[C@H](CCC(=O)O)NC(=O)[C@@H](N)CCCCN)C(C)C)[C@@H](C)CC)C(=O)N[C@@H](CC(N)=O)C(=O)N[C@@H](C)C(=O)O`, the remaining activity was 75% (MAPK3 (Homo sapiens, UniProt P27361); enzyme activity, radiometric; 500 µM, 20 min).
